Published values collected from several papers.
Parts stem from different laboratories: compare values within a part only.

Sample 1 — method: protein binding microarray; form: double-stranded DNA, one strand shown; medium: in vitro; tested at: not given; relative to: not given; direction: higher = stronger binding
Target: Histone acetyltransferase KAT6A, winged helix 2, GST fusion (KAT6A, Homo sapiens, UniProt Q92794, residues 85-181)
Notes: 8-mer, flanks averaged, mean of 2 arrays, mostly near background
Target sequence (chain): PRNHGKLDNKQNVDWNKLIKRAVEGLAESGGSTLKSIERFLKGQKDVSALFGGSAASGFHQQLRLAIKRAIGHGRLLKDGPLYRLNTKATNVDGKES
Strand	E-score
GACACCTA	-0.162
ATTTATGC	-0.0265
AAGGCGAC	-0.0589
TGACCCCA	-0.0347
AACCACTC	0.00974
CGTTGTGC	0.136
GACGTTTA	-0.24
TCATGCAA	0.0276
GGTCGTAA	0.035
GCAGAGAA	0.103
ATATGTCC	-0.0474
AGAATGCA	0.0862
CACGATCG	-0.167
AAGCGACC	0.139
ACCGTGAG	-0.163
CGCCGCCC	0.123
CCCCACGC	-0.00504
GCTCGCTA	-0.000555
GCTGGTCC	0.139
AACGATTA	-0.203
ACATGTTG	-0.0437
ACAGGGCC	0.054

Sample 2 — method: RNAcompete; form: RNA; medium: in vitro; tested at: 20 nM; notes: 7-mer, probes averaged, single round; relative to: mean of 7-mers; direction: higher = stronger binding
Target: PABPC1L2, full length, GST fusion (mouse, UniProt A0ABA7IW68)
Residues (chain): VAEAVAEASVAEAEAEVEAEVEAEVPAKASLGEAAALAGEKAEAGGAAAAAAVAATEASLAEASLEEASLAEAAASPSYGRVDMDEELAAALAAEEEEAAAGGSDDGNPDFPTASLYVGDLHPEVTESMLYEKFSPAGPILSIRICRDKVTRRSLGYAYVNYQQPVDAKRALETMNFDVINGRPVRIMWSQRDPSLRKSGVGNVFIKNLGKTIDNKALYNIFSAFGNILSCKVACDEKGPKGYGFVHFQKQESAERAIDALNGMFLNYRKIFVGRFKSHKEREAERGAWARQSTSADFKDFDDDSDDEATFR
Strand	7-mer Z-score
CGUAUGG	-0.242
UCGGGAG	-0.0573
AAAGCUA	0.61
GACUUCA	-0.119
AUCUGUU	-0.347
GCAGUGC	-0.157
CCAGGCG	-0.204
GAUUCGU	-0.405
GAUAACA	0.153
GUAUCGC	-0.364
AAUCCCU	-0.166
AUGCCCU	-0.289
CAGCAUG	-0.0736
CCUAUAC	-0.28
GGUACAA	0.414
UACAGAA	0.148
GCCUGAC	-0.289
ACUACCC	-0.365
GCGAAGC	-0.132
CCUAAAA	3.52
UUCAUGA	-0.112
AUUCUGU	-0.309
AUACAUA	0.0678
CCUGCCA	-0.282
UAGGUAU	-0.0554

Sample 3 — method: RNA Bind-n-Seq; form: RNA; medium: in vitro; tested at: not given; relative to: input RNA pool; direction: higher = stronger binding
Target: RING finger protein unkempt homolog, zinc fingers 1-6, GST-SBP tag (UNK, Homo sapiens, UniProt Q9C0B0, residues 30-357)
Notes: RNA with constant flanks, human and mouse sites, ends assumed
All sequences stand within: GGGAGUUCUACAGUCCGACGAUC … CAACAGAGGAUUGAGCAUCA
Target sequence (chain): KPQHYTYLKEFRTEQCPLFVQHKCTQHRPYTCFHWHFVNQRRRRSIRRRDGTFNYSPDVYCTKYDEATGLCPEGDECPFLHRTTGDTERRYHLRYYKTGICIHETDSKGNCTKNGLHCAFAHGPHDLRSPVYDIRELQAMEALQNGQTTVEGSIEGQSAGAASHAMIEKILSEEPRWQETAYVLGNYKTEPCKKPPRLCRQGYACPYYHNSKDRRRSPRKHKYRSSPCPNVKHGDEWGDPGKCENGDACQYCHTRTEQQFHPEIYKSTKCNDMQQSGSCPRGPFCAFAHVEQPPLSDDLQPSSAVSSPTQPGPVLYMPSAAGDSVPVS
Strand	bound/input enrichment
GUAUUUCAGUUUGCAGUAGAUUGUGAGUGUGUGCGCUAAGUAAAAGUUCCAUGAUUCACAAUUUGGGUAUUAACCAUAUCAAAGAAGCUGUUACUGGUCAGCAGAAUCUAAUGAUGUGCU	0.263 ratio
CACUGCCUGAUGACACCUUCCGCGACCUGGGCAACCUCACACACCUCUUCCUGCACGGCAACCGCAUCUCCAGCGUGCCCGAGCGCGCCUUCCGUGGGCUGCACAGCCUCGACCGUCUCC	0.229 ratio
CAAAUGCGCUCUUUCAAACCAUUCAUUAUCCUGUGUAUUUUUAAUGUGGUUUUAGUAAAUGUUGGUAGUAGCUCUGUUGAAGUAGGUAAUUGUGUUAUGUUUUGGGUGGUACACACUUGG	4.49 ratio
ACUGGAAAGACUCUGGUUGCCAGAGCACUUGCCAAUGAGUGCAGUCAAGGGGAUAAAAGAGUAGCAUUUUUCAUGAGGAAAGGUGCUGAUUGUCUAAGUAAAUGGGUAGGAGAAUCUGAA	0.318 ratio
GUUAAGAGAAGACUAUGGAGCUGUACGAGUCAACGUAUUUUGUUGUCCUCAUCCCUUCAGUAGUUAUUACCGUCAUUUUCCUUUUCUUCUGGCUUUUCAUGAAAGAAACAUUAUAUGAUG	4.73 ratio
ACGUCAGUGGUCAUUAGCUCCUGCUCUCUGGCUGAAGCCCGCCUCCUGCUAGACAACUUCCUCAAGGCGUCCAUUGACAAGGGACUUCAAGUAGCACAGAAGGAAGCCCAGAUCCGGCUG	0.147 ratio
CUGCAUUUUGCAUGCAUAGUUUAAGAUUACUGGGUGCAGAGAGGGUUCAUUUCUCAAAAUUUAGUCACUGAUAAAUCAUUGUAACGGAUCAUUAUAAAAAUCAUAAACAUAUUUUGUUUG	2.05 ratio
UGUUUUUUCUGCAUCUGGAAGGGUGUUCGAUCCACAGGCAAGGUUGUCUACUUCACCGCUACUUUCCCGUUUGCCAUGCUUCUGGUGCUGCUGGUCCGUGGACUGACCCUGCCAGGUGCU	0.199 ratio
CAGCAGUCAUCUCUCAGUAGGGACUCACAGGGUCAUGGGCGUGACCUGUCUGCGGCAGGAAUAGGCCUUCUUGCUGCUGCUACCCAGUCUUUAAGUAUGCCAGCAUCUCUUGGAAGGAUG	0.0646 ratio
CUGUGUUAUAUGUCAUAUUUAGCGUUUUUAUAUAUGACCUUUGAUUUCUGUUGUUUGUAUUUUAGCACAGUGUAUGCACCUUCAUUUAAAUACAUCUGUGUGCAUACAGAUACGCAUAUA	2.59 ratio
GGAUUUUCUCAGUCCUUCACUCAAGAACAAGUAGCUGAUAUUGAUGGACAGUAUGCAAUGACUCGAGCUCAGAGGGUACGAGCUGCUAUGUUCCCUGAGACAUUAGAUGAGGGCAUGCAG	0.277 ratio

Sample 4 — method: RNA Bind-n-Seq; form: RNA; medium: in vitro; tested at: 15 pmol; notes: 4-mer, random 30-nt RNA, single round; added: 3 µM RocA, 2 mM AMP-PNP; relative to: mean of 4-mers; direction: higher = stronger binding
Target: Eukaryotic initiation factor 4A-I (EIF4A1, Homo sapiens, UniProt P60842, residues 1-406, full length assumed)
Chain of UniProt P60842 (whole entry, looked up): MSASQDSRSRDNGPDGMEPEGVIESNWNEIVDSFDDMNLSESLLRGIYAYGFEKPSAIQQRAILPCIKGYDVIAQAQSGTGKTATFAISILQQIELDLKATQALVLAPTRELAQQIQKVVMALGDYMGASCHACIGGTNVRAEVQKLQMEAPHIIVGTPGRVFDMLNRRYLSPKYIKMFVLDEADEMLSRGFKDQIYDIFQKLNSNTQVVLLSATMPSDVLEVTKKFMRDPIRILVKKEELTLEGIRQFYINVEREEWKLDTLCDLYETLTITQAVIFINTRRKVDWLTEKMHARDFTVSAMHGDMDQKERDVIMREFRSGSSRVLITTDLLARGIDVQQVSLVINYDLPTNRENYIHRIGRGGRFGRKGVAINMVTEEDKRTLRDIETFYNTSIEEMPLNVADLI
Strand	4-mer enrichment Z-score
GCCC	-0.83
CGCA	-0.565
ACUG	-0.213
UGAC	-0.532
CCAG	-0.773
UCUA	-0.685
CUCA	-1.57
CUGU	-0.216
UAGU	0.381
UGCU	-0.347
UGCC	-0.808
GCCG	-0.348

Sample 5 — method: RNA Bind-n-Seq; form: RNA; medium: in vitro; tested at: 1 µM; notes: whole 134-nt RNA, ends assumed; added: 150 mM KCl; relative to: input library; direction: higher = stronger binding
Target: Ras GTPase-activating protein-binding protein 1, C-terminal RGG region (G3BP1, Homo sapiens, UniProt Q13283)
Chain of UniProt Q13283 (whole entry, looked up): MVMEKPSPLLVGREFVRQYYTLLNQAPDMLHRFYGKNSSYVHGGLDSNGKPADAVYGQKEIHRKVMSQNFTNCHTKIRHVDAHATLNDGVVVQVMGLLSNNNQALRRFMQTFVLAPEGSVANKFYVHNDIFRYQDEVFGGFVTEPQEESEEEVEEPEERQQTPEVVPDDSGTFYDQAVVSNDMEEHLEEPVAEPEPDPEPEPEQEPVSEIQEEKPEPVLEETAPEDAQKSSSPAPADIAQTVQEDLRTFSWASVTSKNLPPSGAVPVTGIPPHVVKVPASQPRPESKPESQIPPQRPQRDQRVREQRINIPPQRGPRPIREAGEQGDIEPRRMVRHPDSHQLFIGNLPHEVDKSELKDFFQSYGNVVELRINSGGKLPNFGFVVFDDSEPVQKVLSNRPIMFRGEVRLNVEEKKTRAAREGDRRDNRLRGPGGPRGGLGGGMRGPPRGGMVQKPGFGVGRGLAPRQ
All sequences stand within: GGGAGUUCUACAGUCCGACGAUC … UGGAAUUCUCGGGUGUCAAGG
Strand	log2 enrichment
ACCAUGCAGGUGGGCAUCUUAAAGAAGUGGGGCAAGGGGGGGAUAGGGAGGGGGGUAACACUUUGGGAACAGGUGGUCCCAGGUCGUUUC	-1.03
GUCCUGUGCUACACAUCGUAUGUACCGAAUCGGGGUUUUUGGUUUUUGGGGUUUUUGGAAAGUAUUAUGUUACGCCGUUCGGAUCUGCAC	-1.05
CACAGACAACCCGCACCCACACAGACACAGAGGGAAGGGGUUGGGAUGGGGACAGGGUGCACAGCAGGGCGGGGUAGGACCCCAGCCCCU	-0.551
AAGUCCUGUGCUACACAUCGUAUGUACCGAAUCGGUUUUGGUUUUGGGGUUUUGGGAAAGUAUUAUGUUACGCCGUUCGGAUCUGCACUU	-1.51
AAGUCCUGUGCUACACAUCGUAUGUACCGAAUCAAACCCAAAUUUUUAAACCCAAAAAAGUAUUAUGUUACGCCGUUCGGAUCUGCACUU	-1.06
GCAGGAAGUAAAAACAAAUGGAAAUGCUUCGGAUAGUGGCAGGGGUGGGGGUUGCUAAGGAAAGGGUGGGAUGGGAGUGGGUAAAGAGGU	1.63
UCCUGUGCUACACAUCGUAUGUACCGAAUCGGGAAAAAAGGGGAAAAAAGGAAAAAAGGAAAGUAUUAUGUUACGCCGUUCGGAUCUGCA	-1.33
UGGGAGGAGGAUUUUGUUUAUUUUUUUAGCUCAUUUCCAGGGGUGGGAAUUUUUUUUUAAUAUGUGUCAUGAAUAAAGUUGUUUUUGAAA	3.17
ACCAUGCAGGUGGGCAUCUUUGGGAACUGGGGCAAGGGGGGGAUAGGGAGGGGGGUAACACUUUGGGAACAGGUGGUCCCAGGUCGUUUC	-1.48
UUUGCAGGGAGUGGUACGGGUAUCACUUUCCGGAGCUGGUGAAGAUCAUCAACGACAAUGCCACAUACUGCCGUCUUGCCCAGUUUAUUG	-1.18
GAGCUGGAAGCUAUCAAAGCUCGAGUCAGGGAGAUGGAGGAAGAAGCUGAGAAGCUAAAGGAGCUACAGAACGAGGUAGAGAAGCAGAUG	-1.33
CCUCAAGUCCUGUGCUACACAUCGUAUGUACCGAAUCGGAAAGGAGGAAAGGAAAGUAUUAUGUUACGCCGUUCGGAUCUGCACUUCCAG	-0.85
UGUCCUGUGCUUUCACAUUCUUUCUGCAUGGAGAAAGUAAUGUAUGCACAAGUGUGGAGAUUGCCCAGCACCAGCCAAUUUAUUUGAUCA	-1.33
GUCCUGUGCUACACAUCGUAUGUACCGAAUCGGGGUGGGGUUUUUUUGGGGAAAGGGGAAAGUAUUAUGUUACGCCGUUCGGAUCUGCAC	1.62

Sample 6 — method: RNA Bind-n-Seq; form: RNA; medium: in vitro; tested at: 365 nM; relative to: no-protein control; direction: higher = stronger binding
Target: RNA binding protein fox-1 homolog 2, RRM domain, GST-SBP tag (RBFOX2, Homo sapiens, UniProt O43251-10, residues 100-194)
Notes: natural RNA segment, single round, ends assumed
All sequences stand within: GGGAGUUCUACAGUCCGACGAUC … UGGAAUUCUCGGGUGCCAA
Target sequence (chain): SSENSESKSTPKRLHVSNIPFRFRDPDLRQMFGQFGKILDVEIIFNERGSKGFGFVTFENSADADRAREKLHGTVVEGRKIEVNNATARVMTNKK
Strand	RBNS enrichment (R)
ACAGUUGAUCCUUGUAAAUACAUUAUGCAGAAUAUUUAUUUUUCUUAAAAUGUAUUUUCACAACCCCAGUGGCUGUGGCCAAAUGAGUCCUCAUUGAACACGAGAUGGAG	0.288
GGCUCCCCCACUAGCUUUCAGGUGGGUAAGUUUUUUUGUUUGUUUUUUGGGGGUCUUUAGACUCUUGAAGGCAACUCAGGGUAUUGUCCACGCAGCUCUCUGGUUAGACU	0.281
CUGGCAGAGGCGGCUCGGGCUGCCCAUCGUGUUUCUGCGGGGUUGAGGUGGGCUCCCUUCUUUGUAGAUGCCUUUCCUCUCGUAAUAACAACUCCUUGCCCCCAGGGCUC	0.863
ACGGCGCUGAGGGUCGGCAGGCUGGGGCUAUUUUUACCUCCUGACUCCCUUGCUGGGCACUACCCCCCCACCUGAUACCCUGCUGUGUAGUCUGACACUGGAGUCCCCAA	0.485
CCACACACAGCACAGAGAGCAGAGUUUAACCAUAGAUCAUGGUAGGCUCAACAUUCCCUUCUAAAGCUGCAAGCCAAUCACUGUAACUGUAGCUGAGGAGGAGGGGAAGC	0.256
UUUCCGGGCCCUCAGGGCUGGGGAGCUCAGUUCCCAUUGCUUGUGCUCAGGGCUGAGUCUUAAAGAAGGGUUUGCCGGCCCUAACGCUGCAGCGCGUGCGCGGUGAGAGG	0.948
AAGCUAAGUGUCUGUGUGGCUGUGGAGCUCGAGGGUCUGUGAAUAAAGGCGGCGGCACUGGGCGUGGCUCUUGGUGGUCUGUCAGGCCUCUGCCCCUGCGGCACACAUGC	0.781
GCCUCACGGAUACAUCCAGCUAUGUGCUUGUCUGGUAGCCUUUGCGUUUAACAAACUAGCAUGAGGCCUUUCAUAUCUAAAUGCUGUGUGAUAGACAAUUUCAGCUAGCC	0.377
AUUUUGAAUUGAGUGAAGUGCAAUUUCAUUGGAUAGCUAAGUAUCUUUGUAAGAUAGAGAUUGUUGAAAAUUCUAUUUUUGUUUUUCAAGUCCUCCCACCCCAGGACUCU	0.496
AGGAGAGUGGUCUGUAAGCUCCAUCAGCCCUGUCCUGAGACAGCAGGGGGGAAGGACACUGGAGACUUUCUUGUGGGGCUUACUUAGCCUUCUGGUUACAGACUAUUUCC	0.701
UAAAUUUCUAAUGUGUUCUAUGGGUUUCAAUUCUGAAAAAAGAAAAUGAAUAAAGAUUUUAAUAAAUAUUGAUAUCUGAUCUUUUCCUCUUCUUUCCCCCUUCAGGAUAU	0.665
UGUGGGAGCCUUCAAUCCUCAGUGGCAUGGGAAACAGCUGAGUACUUGCCCCGUGACUUCAGUUUUCUAUAGGAAUUUUAUUAAAGAGUGUUUAAUUUUGUUGUCCUUCU	13

Repeated from above (sample 2):
Strand	7-mer Z-score
CAGCAUG	-0.0736
AAAGCUA	0.61
UCGGGAG	-0.0573
UAGGUAU	-0.0554
GACUUCA	-0.119
GUAUCGC	-0.364
AUCUGUU	-0.347
AUGCCCU	-0.289
CCAGGCG	-0.204
CCUAAAA	3.52
UACAGAA	0.148
UUCAUGA	-0.112
GAUAACA	0.153
CGUAUGG	-0.242
GGUACAA	0.414
